Assay results from different studies.
Each line is one published result; not all experiments were run side by side. ± marks the error that the study gave.
Medium: plasma

Structure (SMILES) | test | system | setting | endpoint | result
CNC(=O)c1ccc(-c2cnc3ncc(Cc4ccc5ncccc5c4)n3n2)cc1F | – | healthy human subjects | oral, 200 mg, median, added: itraconazole 200 mg/day | tmax | 2 h
COc1ccc(-c2ccc3c(N4CCOC[C@@H]4C)nc(N4CCOC[C@@H]4C)nc3n2)cc1CO | – | human | oral, 20 mg twice daily, oral solution | Tmax at steady state | 0.25 to 1 h
CS(=O)(=O)Nc1ccc(C(=O)O[C@@H](Cc2c(Cl)c[n+]([O-])cc2Cl)c2ccc(OC(F)F)c(OCC3CC3)c2)cc1OCC1CC1 | – | human | inhaled, 200 µg single dose, single-dose dry powder inhaler | tmax | 1.03 h
CNC(=O)c1cccc2cc(Oc3ccnc4cc(OCC5(N)CC5)c(OC)cc34)ccc12 | – | human patients continuous arm | oral, 10 mg, single dose cycle 1 day 1 | Tmax median | 1 h
Cc1nc(-c2ccc(OCC(C)C)c(C#N)c2)sc1C(=O)O | – | human adults | oral, 10 to 160 mg once daily, fed, PopPK post hoc | Tmax at steady state | 1.46 ± 0.84 h
Cc1nc(-c2ccc(OCC(C)C)c(C#N)c2)sc1C(=O)O | – | human | oral, day 7, median, added: verinurad | tmax | 1.52 h
CNC(=O)c1ccc(-c2cnc3ncc(Cc4ccc5ncccc5c4)n3n2)cc1F | – | human, normal hepatic function | oral, 200 mg single dose | Tmax (median) | 1 h
Cc1c(Cl)c(C)[n+]([O-])c(Cl)c1-c1noc(-c2cc(O)c(O)c([N+](=O)[O-])c2)n1 | LC-MS/MS | healthy male human, fasted | oral, 25 mg single dose, capsule | Tmax (median) | 1.5 h
CNCc1ccc(-c2[nH]c3cc(F)cc4c3c2CCNC4=O)cc1 | – | human patients | oral, 840 mg twice daily, day 15, steady state, median | Tmax | 4.04 h
O=C(c1cccnc1-c1ccncc1)N1CCC(O)(Cc2ccccc2)CC1 | – | healthy human | oral, 100 mg once daily, day 1 | tmax | 0.42 h
CN(Cc1cnc2nc(N)nc(N)c2n1)c1ccc(C(=O)N[C@@H](CCC(=O)O)C(=O)O)cc1 | – | human | oral, 10 mg, added: apremilast 30 mg twice daily | tmax | 0.98 h
